Measurements pooled from the literature.
A part holds a random share of what one study measured. Substitutions count along the parent as printed.

Sample 1
Target: Sal-like protein 4, full length isoform A (SALL4, Homo sapiens, UniProt Q9UJQ4, residues 1-1053)
Chain of UniProt Q9UJQ4 (whole entry, looked up): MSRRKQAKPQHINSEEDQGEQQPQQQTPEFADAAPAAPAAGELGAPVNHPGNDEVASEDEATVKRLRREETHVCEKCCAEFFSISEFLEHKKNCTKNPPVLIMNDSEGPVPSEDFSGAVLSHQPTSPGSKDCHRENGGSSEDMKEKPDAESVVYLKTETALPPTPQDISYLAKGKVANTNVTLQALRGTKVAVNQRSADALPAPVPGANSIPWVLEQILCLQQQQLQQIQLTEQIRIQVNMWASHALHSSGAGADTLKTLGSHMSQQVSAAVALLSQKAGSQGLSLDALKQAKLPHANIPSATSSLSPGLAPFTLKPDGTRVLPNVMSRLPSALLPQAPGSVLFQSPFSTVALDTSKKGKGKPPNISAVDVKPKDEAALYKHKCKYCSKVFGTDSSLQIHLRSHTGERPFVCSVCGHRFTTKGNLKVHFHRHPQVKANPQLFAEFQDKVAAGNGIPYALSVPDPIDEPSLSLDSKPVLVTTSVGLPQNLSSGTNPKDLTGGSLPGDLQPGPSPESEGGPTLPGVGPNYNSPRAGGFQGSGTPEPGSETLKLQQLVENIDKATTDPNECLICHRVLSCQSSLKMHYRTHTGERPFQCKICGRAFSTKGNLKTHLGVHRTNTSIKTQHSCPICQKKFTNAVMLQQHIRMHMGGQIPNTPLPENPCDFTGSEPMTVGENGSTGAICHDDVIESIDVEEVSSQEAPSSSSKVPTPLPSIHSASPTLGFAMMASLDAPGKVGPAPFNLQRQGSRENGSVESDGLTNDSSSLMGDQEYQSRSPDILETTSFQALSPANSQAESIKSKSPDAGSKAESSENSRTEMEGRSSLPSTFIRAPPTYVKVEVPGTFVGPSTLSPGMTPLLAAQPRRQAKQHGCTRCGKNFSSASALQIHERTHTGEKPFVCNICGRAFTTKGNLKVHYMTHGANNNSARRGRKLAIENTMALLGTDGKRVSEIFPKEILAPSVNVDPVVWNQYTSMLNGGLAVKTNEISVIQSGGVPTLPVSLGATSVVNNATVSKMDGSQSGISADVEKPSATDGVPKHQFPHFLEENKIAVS
Technique: universal PBM
Molecule type: double-stranded DNA, one strand shown
Matrix: in vitro
Concentration: 600 nM
Setting: 8-mer, flanks averaged, mean of replicates
Reading: higher = stronger binding
Strand | E-score
CTACAGAG | 0.0727
GCCGGGAC | -0.288
AACAAAAC | 0.181
ATCTTCAT | 0.219
TGCCGCCA | -0.125
AAAGTCAG | 0.0251
AGTCGGGG | -0.195
CAAGGTGC | -0.194
CAACCTAC | -0.0344
CGGGACAG | -0.165
ACGGGTCC | -0.344
CTGAGTTC | -0.106
GCGCGCGA | -0.263
ACTAGCGG | -0.177
ACGGCACT | -0.198
CTCATTAA | 0.207
AGTAGCGC | -0.151

Sample 2
Target: Prothrombin, mature alpha-thrombin (F2, Homo sapiens, UniProt P00734)
Technique: aptamer microarray, sandwich
Molecule type: DNA with 2'F-ANA
Matrix: in vitro
Concentration: 200 nM
Setting: whole 15-mer aptamer, many near background
With: Cy3 exosite-II aptamer, 400 nM
Reading: higher = stronger binding
Strand: GGTTGGTGTGGTTGG
Modification | mean fluorescence intensity
2'F-ANA at 5 8 11 13 | 62.1 a.u.
2'F-ANA at 3 4 8 10 12 15 | 375 a.u.
2'F-ANA at 2 3 4 5 8 10 11 12 13 14 15 | 60.1 a.u.
2'F-ANA at 6 7 8 11 12 15 | 702 a.u.
2'F-ANA at 1 3 5 7 8 9 12 13 | 104 a.u.
2'F-ANA at 1 2 4 8 9 10 11 12 14 | 49.8 a.u.
2'F-ANA at 1 2 3 4 11 12 15 | 253 a.u.
2'F-ANA at 2 3 6 8 9 14 | 386 a.u.
2'F-ANA at 1 3 5 6 7 9 10 11 13 14 | 128 a.u.
2'F-ANA at 4 6 8 10 11 13 14 15 | 56.8 a.u.
2'F-ANA at 1 2 3 5 6 8 9 13 14 | 45.7 a.u.
2'F-ANA at 1 2 5 10 12 13 14 | 45.1 a.u.
2'F-ANA at 1 2 3 7 9 11 | 189 a.u.
2'F-ANA at 1 3 4 5 8 10 15 | 45.6 a.u.
2'F-ANA at 1 4 6 8 9 10 11 13 14 15 | 68.2 a.u.
2'F-ANA at 2 4 6 9 11 12 15 | 312 a.u.
2'F-ANA at 2 3 7 9 10 11 12 14 | 267 a.u.
2'F-ANA at 2 3 4 5 6 9 11 12 14 | 52.1 a.u.
2'F-ANA at 5 8 9 10 11 14 | 56.5 a.u.
2'F-ANA at 1 2 3 4 6 7 12 | 338 a.u.

Sample 3
Target: CCND1, cyclin fold, Cln2 fusion (human)
Technique: yeast growth competition, sequencing
Matrix: yeast
Setting: strong parent motif
Baseline: not given
Reading: higher = stronger binding
Starting sequence: PKN2 docking peptide (human); VSAVQKLDFSDTM; partner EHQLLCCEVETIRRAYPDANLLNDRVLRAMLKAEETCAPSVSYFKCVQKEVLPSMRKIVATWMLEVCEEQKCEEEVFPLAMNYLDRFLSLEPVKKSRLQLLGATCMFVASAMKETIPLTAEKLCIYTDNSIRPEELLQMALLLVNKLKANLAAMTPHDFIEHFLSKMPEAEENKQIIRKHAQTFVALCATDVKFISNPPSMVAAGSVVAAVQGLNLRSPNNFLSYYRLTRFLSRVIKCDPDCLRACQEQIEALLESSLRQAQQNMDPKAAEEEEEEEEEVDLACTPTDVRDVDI
Change | normalised enrichment score
T12W | 3.59
S2V | 0.875
S2L | 1.09
V4W | 0.507
L7G | -0.236
F9N | 0.341
T12H | 2.51
S10I | 1.62
K6Q | 1.32
L7R | 0.0814
L7T | -0.201
A3W | 1.13
V1Q | 2.03
A3F | 0.359
L7W | 0.544
S2R | 2.51
D11P | 1.2
S10R | 1.43
S10N | 1.23
D11M | 1.43
V4M | 1.19
D11V | 1.06
V4L | 0.673
D8W | 0.52
F9L | 0.371

Sample 4
Target: Fragile X messenger ribonucleoprotein 1, C-terminal low-complexity region (Fmr1, Mus musculus, UniProt P35922)
Technique: RNA Bind-n-Seq
Molecule type: RNA
Matrix: in vitro
Concentration: 200 nM
Setting: whole 134-nt RNA, ends assumed
With: 150 mM LiCl
Baseline: input library
Reading: higher = stronger binding
All molecules: 7-deaza-guanosine replaces G
Strand | log2 enrichment
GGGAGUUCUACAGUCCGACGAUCGCAGGAAGUAAAAACAAAUGGAAAUGCUUCGGAUAGUGGCAGCGGUGGGGGUUGCUAAGGAAAGGGUGGGAUGGGAGUGGGUAAAGAGUUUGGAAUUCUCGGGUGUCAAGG | 1.1
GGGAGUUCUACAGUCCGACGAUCAGUCCUGUGCUACACAUCGUAUGUACCGAAUCGGGUUUUUUUGGGUUUGGGUUUGGGAAAGUAUUAUGUUACGCCGUUCGGAUCUGCACUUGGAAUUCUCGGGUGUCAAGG | -1.69
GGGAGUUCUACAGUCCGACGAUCAUGGACUUGCACAUGAUGAACUGUGAACUUCUAGCCACAUGUAGUGCCCUUGGGUACUUGGAGGGAGACACUUACCAUAAGGAACCAGAUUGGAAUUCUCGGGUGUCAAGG | -1.78
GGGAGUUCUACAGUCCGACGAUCCACAGACAACACGCACCCACACAGACACAGAGGGAAGGGGUUGGGAUGGGGACAGGGUGCACAGCAGGGCGGGGUAGGACCUCAGCCCCUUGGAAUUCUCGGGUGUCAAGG | 0.301
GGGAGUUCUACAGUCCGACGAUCCCUGUGCUACACAUCGUAUGUACCGAAUCGGGAAAAAGGGAAAAAAAGGGUUUUUUUGGGAAAGUAUUAUGUUACGCCGUUCGGAUCUGCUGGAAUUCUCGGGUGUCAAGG | -1.75
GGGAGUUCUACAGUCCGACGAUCCACAGACAACACGCACCCACACAGACACAGAGGGAAGGGGUUGGGAUGGGGACAGGGUGAAAAGCAGGGCGGGGUAGGACCCCAGCCCCUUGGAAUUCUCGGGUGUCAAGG | -0.112
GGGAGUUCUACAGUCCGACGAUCGCAGGAAGUAAAAACAAAUGGAAAUGCUUCGGAUAGUGGCAGGGGUGGGGGUUGCUAAGGAAAGGGUGGGAUGGGGGUGGGUAAAGAGUUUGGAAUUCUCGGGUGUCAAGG | 1.75
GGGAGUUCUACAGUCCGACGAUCCAAGUCCUGUGCUACACAUCGUAUGUACCGAAUCGGGGUUUGGUUUGGGUUUGGGGAAAGUAUUAUGUUACGCCGUUCGGAUCUGCACUUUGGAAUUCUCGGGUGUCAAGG | -1.81
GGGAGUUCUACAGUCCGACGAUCAGUCCUGUGCUACACAUCGUAUGUACCGAAUCAAACCCAAAUUUAAAUUUUUUUAAAAAAGUAUUAUGUUACGCCGUUCGGAUCUGCACUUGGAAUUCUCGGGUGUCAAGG | -1.42
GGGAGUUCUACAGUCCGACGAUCUCAAGUCCUGUGCUACACAUCGUAUGUACCGAAUCGGGAAAGGGUUUGGGUGGGAAAGUAUUAUGUUACGCCGUUCGGAUCUGCACUUCCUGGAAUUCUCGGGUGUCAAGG | -1.58
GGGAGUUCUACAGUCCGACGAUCGUCCUGUGCUACACAUCGUAUGUACCGAAUCGGGGUUUUUGGGGUUUGGGGUUUGGGGAAAGUAUUAUGUUACGCCGUUCGGAUCUGCACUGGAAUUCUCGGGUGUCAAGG | -0.823

Sample 5
Target: ABI1, truncated, D143A, DHFR fusion (Arabidopsis thaliana)
Technique: DHFR PCA, deep sequencing
Matrix: yeast
Setting: methotrexate growth selection, single substitutions
With: (+)-ABA 0.0091 µM
Baseline: wild-type fitted maximum
Reading: higher = stronger binding
Starting sequence: PYL1, truncated, DHFR fusion (Arabidopsis thaliana); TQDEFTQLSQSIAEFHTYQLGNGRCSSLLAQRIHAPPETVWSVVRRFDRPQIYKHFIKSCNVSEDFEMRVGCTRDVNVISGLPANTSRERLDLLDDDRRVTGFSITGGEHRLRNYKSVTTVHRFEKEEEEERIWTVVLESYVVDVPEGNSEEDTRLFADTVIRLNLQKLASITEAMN; partner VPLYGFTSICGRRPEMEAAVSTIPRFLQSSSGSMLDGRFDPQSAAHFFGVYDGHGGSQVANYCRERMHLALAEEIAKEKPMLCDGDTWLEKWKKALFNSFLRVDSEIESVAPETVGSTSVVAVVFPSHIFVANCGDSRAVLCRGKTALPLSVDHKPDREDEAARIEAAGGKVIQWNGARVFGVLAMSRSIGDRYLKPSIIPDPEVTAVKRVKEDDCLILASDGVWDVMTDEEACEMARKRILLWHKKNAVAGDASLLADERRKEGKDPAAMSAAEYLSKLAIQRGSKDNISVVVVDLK
Change | relative binding score
A13T | 19.6%
R163H | 1.09%
F103C | -0.796%
M176F | -4.28%
Q2S | 32.3%
A13N | 24.8%
F15G | 0.215%
R111F | 2.93%
E147K | 20.1%
H34L | 26%
L93Y | 12.1%
G21L | 0.971%
F66N | 7.02%
D92I | -4.88%

Sample 6
Target: NFIL3, bZIP domain (human)
Technique: DHFR protein complementation
Matrix: yeast
Setting: single substitutions, most at no-binding floor
Baseline: wild-type JUN-FOS pair
Reading: higher = stronger binding
Starting sequence: JUN, bZIP domain (human); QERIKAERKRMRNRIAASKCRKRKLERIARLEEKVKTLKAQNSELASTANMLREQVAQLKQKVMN; partner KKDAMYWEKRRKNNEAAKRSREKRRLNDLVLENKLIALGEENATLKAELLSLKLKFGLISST
Change | binding fitness [natural log]
A40N | -1.49
T37A | -1.3
K36W | -1.37
I28R | -1.42
A46I | -1.51
V35W | -1.36
I28E | -1.42
M51L | -1.5
A29F | -1.29
E33V | -1.41
R53M | -1.47
K36M | -1.28
A57R | -1.45
A49L | -1.39
L52S | -1.46
K39P | -1.5

Some of these lines once more (sample 4):
Strand | log2 enrichment
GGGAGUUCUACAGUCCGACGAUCCACAGACAACACGCACCCACACAGACACAGAGGGAAGGGGUUGGGAUGGGGACAGGGUGCACAGCAGGGCGGGGUAGGACCUCAGCCCCUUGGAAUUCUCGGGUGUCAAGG | 0.301
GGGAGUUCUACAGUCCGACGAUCAUGGACUUGCACAUGAUGAACUGUGAACUUCUAGCCACAUGUAGUGCCCUUGGGUACUUGGAGGGAGACACUUACCAUAAGGAACCAGAUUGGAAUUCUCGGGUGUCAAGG | -1.78
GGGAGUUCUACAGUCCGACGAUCCCUGUGCUACACAUCGUAUGUACCGAAUCGGGAAAAAGGGAAAAAAAGGGUUUUUUUGGGAAAGUAUUAUGUUACGCCGUUCGGAUCUGCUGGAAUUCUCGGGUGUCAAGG | -1.75
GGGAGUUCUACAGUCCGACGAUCAGUCCUGUGCUACACAUCGUAUGUACCGAAUCAAACCCAAAUUUAAAUUUUUUUAAAAAAGUAUUAUGUUACGCCGUUCGGAUCUGCACUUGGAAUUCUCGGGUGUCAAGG | -1.42
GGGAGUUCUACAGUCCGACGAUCCAAGUCCUGUGCUACACAUCGUAUGUACCGAAUCGGGGUUUGGUUUGGGUUUGGGGAAAGUAUUAUGUUACGCCGUUCGGAUCUGCACUUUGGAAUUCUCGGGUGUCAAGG | -1.81
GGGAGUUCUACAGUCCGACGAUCGCAGGAAGUAAAAACAAAUGGAAAUGCUUCGGAUAGUGGCAGGGGUGGGGGUUGCUAAGGAAAGGGUGGGAUGGGGGUGGGUAAAGAGUUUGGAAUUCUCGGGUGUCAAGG | 1.75
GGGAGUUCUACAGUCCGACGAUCUCAAGUCCUGUGCUACACAUCGUAUGUACCGAAUCGGGAAAGGGUUUGGGUGGGAAAGUAUUAUGUUACGCCGUUCGGAUCUGCACUUCCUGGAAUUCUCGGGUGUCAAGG | -1.58
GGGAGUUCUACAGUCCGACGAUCAGUCCUGUGCUACACAUCGUAUGUACCGAAUCGGGUUUUUUUGGGUUUGGGUUUGGGAAAGUAUUAUGUUACGCCGUUCGGAUCUGCACUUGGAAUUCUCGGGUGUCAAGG | -1.69
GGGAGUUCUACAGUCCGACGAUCGUCCUGUGCUACACAUCGUAUGUACCGAAUCGGGGUUUUUGGGGUUUGGGGUUUGGGGAAAGUAUUAUGUUACGCCGUUCGGAUCUGCACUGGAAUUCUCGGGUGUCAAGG | -0.823
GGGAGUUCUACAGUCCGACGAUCCACAGACAACACGCACCCACACAGACACAGAGGGAAGGGGUUGGGAUGGGGACAGGGUGAAAAGCAGGGCGGGGUAGGACCCCAGCCCCUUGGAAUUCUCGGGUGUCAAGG | -0.112
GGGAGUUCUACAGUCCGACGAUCGCAGGAAGUAAAAACAAAUGGAAAUGCUUCGGAUAGUGGCAGCGGUGGGGGUUGCUAAGGAAAGGGUGGGAUGGGAGUGGGUAAAGAGUUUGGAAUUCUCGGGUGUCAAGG | 1.1
